# Results of several laboratories.
# Numbered parts are unrelated; each lists some results of a single study. Substitutions count along the parent as printed.

# Study 1
# Target: RING finger protein unkempt homolog, zinc fingers 1-6, GST-SBP tag (UNK, Homo sapiens, UniProt Q9C0B0, residues 30-357)
# Sequence of UniProt Q9C0B0 (30-357, looked up): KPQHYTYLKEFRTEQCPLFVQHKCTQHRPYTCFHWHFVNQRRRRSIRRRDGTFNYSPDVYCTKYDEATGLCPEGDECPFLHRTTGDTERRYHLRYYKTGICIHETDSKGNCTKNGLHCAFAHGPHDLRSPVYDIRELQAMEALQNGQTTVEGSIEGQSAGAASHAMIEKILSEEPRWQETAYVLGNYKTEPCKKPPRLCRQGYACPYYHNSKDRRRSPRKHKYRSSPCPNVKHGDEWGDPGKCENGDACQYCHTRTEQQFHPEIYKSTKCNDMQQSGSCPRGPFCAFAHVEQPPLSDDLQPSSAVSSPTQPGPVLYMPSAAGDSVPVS
# Technique: RNA Bind-n-Seq
# Molecule type: RNA
# Sample: in vitro
# Tested at: not given
# Notes: RNA with constant flanks, human and mouse sites, ends assumed
# Baseline: input RNA pool
# Reading: higher = stronger binding
Sequence,bound/input enrichment
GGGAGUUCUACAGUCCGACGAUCUCUCUCUCCUGUCCUUUCUUUUCUUUCUCUCUCUCUUUCUUUCUUUCUUUCUUUCUUUCUUUUUUUUUAACUCCUCAUAUUAUGUUCAGACGCUCAUACUGUCAAGGUUUGUGUACAUUACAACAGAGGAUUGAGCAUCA,2.52 ratio
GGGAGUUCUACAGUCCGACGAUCCUGAAGGCAUUGGAGAGACUCGAGGGUGUGGAAGGUGUGGCCCAUAUCAUCGACCCCAAGGCCAUCAGCAAAGACCACCUCUACGGAACCCUGGACCCCAACACCAGGGAAUGGACAGAUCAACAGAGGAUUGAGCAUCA,0.294 ratio
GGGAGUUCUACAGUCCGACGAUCCAGUCAUGGAGAAAAACAUAUUAAAAUAAUUUCAUGGCAUUGAUGUUAAUUCUAGUCUAUUAGUUUUAUAAAAGUUAGGAUUCUUAUUUAGGAACAACAGGAAAUGACUGUUAAGGAGAACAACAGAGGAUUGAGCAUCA,19.9 ratio
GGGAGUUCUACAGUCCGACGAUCCCCAAUGGUGUCAUCCCUUUCCAUGGGUUUUCCAUGUAUGUUGCACCAUUGUGUUUUCUGUAUCAUGAACCUUACAAAUUGUAUCAGAUAUUCCGUGAGAUGUACGUCCGCUUUUUCUUCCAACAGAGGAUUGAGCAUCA,0.132 ratio
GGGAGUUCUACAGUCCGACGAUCGUGGACACACAGCACUUAAUUAAGCAGCUGAAGCAGCACUUUGCUAUGCUCUGAUCAGUGCUUGGGCCACAUAAGCCUUCACGGAGGGCCAGCGCACAGGGAAGAAAACGCACUGAGUGCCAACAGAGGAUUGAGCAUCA,0.208 ratio
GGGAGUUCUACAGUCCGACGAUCCAUCCAAAGGGCCGUGAUAACAUUAUUGAUCUCUUCCUUUACCAACCACAGUAUCUUAAUGCAAUUCAGACAAUGUGUCCACAUAUUCUACGCUAUUUGACUACUGCCGUCAUAACCAACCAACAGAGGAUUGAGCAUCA,0.194 ratio
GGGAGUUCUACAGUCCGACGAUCACAUGUUCCCAGCUGAGAGACUAUAUCACUCUUGGAGCGGAGGCCUUCUUAUUGAGGCUCUACAGGAAAACCUUUGAGAAGGAUAGCAAAGCUGAAGAAGUCUGGAUGAAAUUUAGGAAGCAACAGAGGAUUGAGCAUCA,0.897 ratio
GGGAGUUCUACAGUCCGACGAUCUGCAAGCUGCCAAGACUGUCUCUGAACGGGGUCCGGUUUAAGCGGAUAUCGGGGACAUCCAUAGCCUUCAAAAAUAUUGCUUCCAAAAUUGCCAAUGAGCUAAAGCUGUAACCCAGUGAUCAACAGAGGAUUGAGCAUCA,0.794 ratio

# Study 2
# Target: Sal-like protein 4, full length isoform A (SALL4, Homo sapiens, UniProt Q9UJQ4, residues 1-1053)
# Sequence of UniProt Q9UJQ4 (whole entry, looked up): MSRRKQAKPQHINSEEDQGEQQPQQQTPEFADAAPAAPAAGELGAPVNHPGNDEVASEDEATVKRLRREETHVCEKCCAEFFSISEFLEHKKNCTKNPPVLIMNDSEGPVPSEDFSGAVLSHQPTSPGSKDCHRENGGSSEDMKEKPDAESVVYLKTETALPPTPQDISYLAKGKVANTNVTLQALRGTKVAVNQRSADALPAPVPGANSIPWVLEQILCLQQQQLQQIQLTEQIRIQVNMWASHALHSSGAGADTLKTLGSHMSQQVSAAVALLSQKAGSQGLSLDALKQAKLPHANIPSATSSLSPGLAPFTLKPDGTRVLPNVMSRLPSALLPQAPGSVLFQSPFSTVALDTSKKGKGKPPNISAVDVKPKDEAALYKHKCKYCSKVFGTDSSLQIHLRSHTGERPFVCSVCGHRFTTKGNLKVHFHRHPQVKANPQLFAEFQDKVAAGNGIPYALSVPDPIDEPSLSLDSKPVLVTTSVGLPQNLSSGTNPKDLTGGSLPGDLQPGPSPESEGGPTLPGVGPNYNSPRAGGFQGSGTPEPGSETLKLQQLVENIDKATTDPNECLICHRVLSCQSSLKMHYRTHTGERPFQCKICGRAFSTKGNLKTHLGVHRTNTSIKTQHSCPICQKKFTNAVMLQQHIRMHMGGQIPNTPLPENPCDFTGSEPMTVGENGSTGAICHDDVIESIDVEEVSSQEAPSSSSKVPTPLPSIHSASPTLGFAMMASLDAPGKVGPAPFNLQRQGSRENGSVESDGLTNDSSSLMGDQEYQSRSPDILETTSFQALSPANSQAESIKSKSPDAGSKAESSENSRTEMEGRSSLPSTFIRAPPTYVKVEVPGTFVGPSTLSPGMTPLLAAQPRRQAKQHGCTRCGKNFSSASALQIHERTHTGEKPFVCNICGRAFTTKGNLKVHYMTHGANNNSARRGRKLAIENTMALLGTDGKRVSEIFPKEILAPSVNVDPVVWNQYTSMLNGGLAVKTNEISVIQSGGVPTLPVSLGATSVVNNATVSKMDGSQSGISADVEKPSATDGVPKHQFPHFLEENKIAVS
# Technique: universal PBM
# Molecule type: double-stranded DNA, one strand shown
# Sample: in vitro
# Tested at: 600 nM
# Notes: 8-mer, flanks averaged, mean of replicates
# Reading: higher = stronger binding
Sequence,E-score
CCATTCCA,-0.121
GGGTGCCA,-0.0902
AATCAGTG,0.0612
TAGCTGGA,-0.00374
GAAACCGA,-0.153
CACAGACG,-0.122
CCTGGCAA,-0.25
CGTGTGAG,-0.171
ACTCTCTA,0.126
CGACAGCG,-0.256
GAACACAA,0.0434
CATCCGCA,-0.0263
AGAGGACC,-0.3
AAAGGCTA,0.0763
AATTCATC,0.173
CCGTGCCC,-0.243
GGGCAGAC,-0.295
GCCGGGCA,-0.426

# Study 3
# Target: RNA binding protein fox-1 homolog 2, RRM domain, GST-SBP tag (RBFOX2, Homo sapiens, UniProt O43251-10, residues 100-194)
# Technique: RNA Bind-n-Seq
# Molecule type: RNA
# Sample: in vitro
# Tested at: 365 nM
# Notes: natural RNA segment, single round, ends assumed
# Baseline: no-protein control
# Reading: higher = stronger binding
# Residues (chain): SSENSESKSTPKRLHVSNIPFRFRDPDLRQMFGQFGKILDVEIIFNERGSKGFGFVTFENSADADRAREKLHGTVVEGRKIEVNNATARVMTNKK
Sequence,RBNS enrichment (R)
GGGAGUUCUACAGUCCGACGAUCUAUCCUGUAGCCAUUUUAUUUUUUAAAAGAUUCCUAACACUUUCUCCCUAACGGAAGCCCUAAAUCCCAGAGAGCUACAGGUCUGCUCCCCAUGGGCCCUCGGGCCUGACUGGAAUUCUCGGGUGCCAA,0.912
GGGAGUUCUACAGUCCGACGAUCUUCACGGAUACACCAGCAGUGUUGGGAUAGGAGCAGCCAGGCCUCAGCAGGAGGGACCAGGGCCGACAGGAACACCAGAGGUUCUUGGCUGUUCCUCUAUCAGCGAAGACUGGAAUUCUCGGGUGCCAA,0.644
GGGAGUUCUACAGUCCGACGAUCGAUCAGGGAAGCUGCUGGCAUCGUCCCCACCCCCAGCCUGGGGGUCUGGGCUGGGGCAGGGAUUGCUCAGUGGAAGCAGGACUGGGGGUCUGGCUUGCCCCCUCCCUGGGUGGAAUUCUCGGGUGCCAA,0.345
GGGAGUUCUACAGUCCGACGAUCGAUGCUGUGAACACCAGGACUUUAAUCUUAUGCUUAAAAUGCCAGAUGUUGUUCGGGGGACAACUUGUAUCUUUCUAGCAGCAGAUCUGUAGUUUGUAUAGCCUCAACAAUGGAAUUCUCGGGUGCCAA,1.07
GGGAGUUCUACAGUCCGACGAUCUGUCAACUCGUAUGCUGGGGGCAGGUGGAGUGGGGGAGCGGUGCCCAUCUGCCUCUGAUGUUCAGUCAUUCCUGGUUUUAUCUCUGAACUUCCCUGGCCACCCUCCUCUGUGGAAUUCUCGGGUGCCAA,0.859
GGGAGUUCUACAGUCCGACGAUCGUCUGGGGGAAAUCACCGGGGUUCAGGGGAGGGGAUUUCCCCGUGAAAUAAACUCAUCAUGGACACUGCCAUAGCUUUUUAAGAAUUGUUACUUUGUGUGUUCAAAAUACUGGAAUUCUCGGGUGCCAA,0.976
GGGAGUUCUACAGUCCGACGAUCCCCACAGCACAUGACACCGACAGCUGCCCAGCCUGUUCACAUGCUGGGGACCAGCACAGCACCUGAAGCCAUGUGGGACAGUUGGGCUUUGUUCAUUCUAGCCACGGGGAUGGAAUUCUCGGGUGCCAA,0.338
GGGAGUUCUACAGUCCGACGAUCAGAGUGUUUCCUCCACUGUAUACUGUCACAGACUAUCAUCAUUGCUUUGUGGCUGGUUUUGUUUUUUUACUGUAUGUAACAAGUAGCUGAUUGUACUUGGAUAAAAAACAUGGAAUUCUCGGGUGCCAA,1.56

# Study 4
# Target: ABI1, truncated, D143A, DHFR fusion (Arabidopsis thaliana)
# Technique: DHFR PCA, deep sequencing
# Sample: yeast
# Notes: methotrexate growth selection, single substitutions
# With: (+)-ABA 710 µM
# Baseline: wild-type fitted maximum
# Reading: higher = stronger binding
# Starting sequence: PYL1, truncated, DHFR fusion (Arabidopsis thaliana); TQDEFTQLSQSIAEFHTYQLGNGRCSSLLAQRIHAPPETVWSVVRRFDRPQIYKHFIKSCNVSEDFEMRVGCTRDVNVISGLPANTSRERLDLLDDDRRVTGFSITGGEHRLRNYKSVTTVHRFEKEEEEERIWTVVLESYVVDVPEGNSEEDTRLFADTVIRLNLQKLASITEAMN; partner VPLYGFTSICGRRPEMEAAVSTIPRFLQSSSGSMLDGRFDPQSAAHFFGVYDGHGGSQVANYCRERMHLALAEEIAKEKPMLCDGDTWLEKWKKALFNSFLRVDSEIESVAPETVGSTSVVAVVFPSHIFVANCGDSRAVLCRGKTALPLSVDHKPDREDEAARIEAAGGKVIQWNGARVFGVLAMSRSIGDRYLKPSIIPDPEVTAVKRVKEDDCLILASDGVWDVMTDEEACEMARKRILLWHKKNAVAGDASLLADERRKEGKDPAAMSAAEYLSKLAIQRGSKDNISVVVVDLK
Variant,relative binding score
R132M,106%
D65Q,105%
S80Y,81.4%
S171Y,94.1%
I12E,74.1%
M176D,101%
E174K,92.9%
T173C,104%
H16W,5.39%
I79Y,103%
V70P,107%
G81Y,34.1%
A30P,84.7%
V44S,40.2%
I162C,96.6%

# For quick reference, copied from above (study 2):
Sequence,E-score
CGTGTGAG,-0.171
ACTCTCTA,0.126
CGACAGCG,-0.256
GAACACAA,0.0434
CATCCGCA,-0.0263
AGAGGACC,-0.3
